Measured values pooled from the literature.
± marks the error that the study gave.

SMILES | assay | system | conditions | how to read | quantity | result
NC(=O)[C@@H](Cc1ccccc1)N[11C](=O)OCc1ccccc1 | dynamic PET | Wistar rat, male, whole brain | intravenous, 3 min |  | SUV max | 1.5
CCCC[C@H](NC(=O)[C@H](Cc1c[nH]c2ccccc12)NC(=O)CNC(=O)[C@H](Cc1ccc(O)cc1)NC(=O)[C@H](C)NC(=O)[C@H](CCC(=O)O)NC(=O)[C@H](Cc1c[nH]cn1)NC(=O)[C@H](Cc1c[nH]cn1)NC(=O)CN1CCN(CC(=O)O)CCN(CC(=O)O)CCN(CC(=O)O)CC1)C(=O)N[C@@H](CC(=O)O)C(=O)N[C@@H](Cc1ccccc1)C(N)=O |  | MF1 nude mouse, male, CA20948 xenograft | intravenous, 0.2 µg, 4 h, 111In-labelled | baseline: tumour over kidney | tumour-to-kidney ratio | 0.31
C[C@H](CCC(=O)N[C@@H](CCCCNC(=O)C(F)(F)F)C(=O)O)[C@H]1CC[C@H]2[C@@H]3[C@H](O)C[C@@H]4C[C@H](O)CC[C@]4(C)[C@H]3C[C@H](O)[C@]12C |  | C57BL/6J mice, gallbladder | oral, 50 mg/kg, 5 h |  | concentration | 5200 µM
[11CH3]n1c(=O)n(CCCO)c(=O)c2c1nc(Oc1cccc(OC(F)(F)F)c1)n2Cc1ccc(Cl)cc1 | ex vivo biodistribution | Sprague Dawley rat, spleen | 60 min post injection |  | tracer uptake | 0.37 ± 0.06 %ID/g
CSCC[C@@H]1NC(=O)[C@@H]2CSSC[C@H](NC(=O)[C@H](CO)NC(=O)[C@H](C)N)C(=O)N[C@@H](CCCNC(=N)N)C(=O)N[C@@H]([C@@H](C)O)C(=O)N3CCC[C@H]3C(=O)N[C@@H](CCCCN)C(=O)N[C@@H](CC(=O)O)C(=O)N[C@H]3CSSC[C@H](NC(=O)[C@H](CCCCN)NC(=O)[C@H](CCCNC(=N)N)NC(=O)[C@H](CC(N)=O)NC1=O)C(=O)N[C@@H](CCCCN)C(=O)N[C@H]1CSSC[C@H](NC(=O)[C@@H]4CCCN4C(=O)[C@H](CC(=O)O)NC(=O)[C@H](C)NC3=O)C(=O)N[C@@H](C)C(=O)N[C@@H](CCCCN)C(=O)N[C@@H](CCC(=O)O)C(=O)N[C@@H]([C@@H](C)O)C(=O)NCC(=O)N[C@@H](CSSC[C@@H](C(N)=O)NC(=O)[C@H](CCCNC(=N)N)NC(=O)[C@H](CC(N)=O)NC1=O)C(=O)N1CCC[C@H]1C(=O)N[C@@H](Cc1ccc(O)cc1)C(=O)NCC(=O)N[C@@H](CCCCN)C(=O)N2 |  | DA rat, pristane-induced arthritis, serum | subcutaneous, 0.1 mg/kg once weekly, end of 21-day trial |  | direct bilirubin | 0.007 mg/dL
CC(C)C[C@H](NC(=O)[C@H](CCCCN)NC(=O)[C@H](CCC(=O)O)NC(=O)[C@H](C)NC(=O)[C@@H](NC(=O)[C@H](CCCCN)NC(=O)[C@H](CC(=O)O)NC(=O)[C@H](Cc1ccc(O)cc1)NC(=O)[C@H](Cc1ccccc1)NC(=O)[C@H](C)NC(=O)[C@H](CCCCN)NC(=O)[C@H](CC(C)C)NC(=O)[C@H](Cc1c[nH]c2ccccc12)NC(=O)[C@@H](N)CC(=O)O)C(C)C)C(=O)N[C@@H](CCCCN)C(=O)N[C@@H](CCC(=O)O)C(=O)N[C@@H](C)C(=O)N[C@@H](Cc1ccccc1)C(=O)N1CCC[C@H]1C(=O)N[C@@H](CC(=O)O)C(=O)N[C@@H](Cc1c[nH]c2ccccc12)C(=O)N[C@@H](C)C(=O)N[C@@H](CCCCN)C(=O)N[C@@H](C)C(=O)N[C@@H](C)C(=O)N[C@@H](Cc1ccc(O)cc1)C(=O)N[C@@H](CC(=O)O)C(=O)N[C@@H](CCCCN)C(=O)N[C@@H](C)C(=O)N[C@@H](C)C(=O)N[C@@H](CCC(=O)O)C(=O)N[C@@H](CCCCN)C(=O)N[C@@H](C)C(=O)N[C@@H](CCCCN)C(=O)N[C@@H](CCC(=O)O)C(=O)N[C@@H](C)C(=O)N[C@@H](C)C(=O)O |  | cynomolgus monkey male, plasma | intravenous infusion, 8 mg/kg, day 1, 30 min infusion |  | AUC(0-last) | 324 µg·h/mL
CC(C)[C@H](NC(=O)CNC(=O)[C@H](CCC(N)=O)NC(=O)[C@H](C)N)C(=O)O |  | human | intravenous infusion, 90 mg/kg/h, 2 h infusion |  | subjects with mild adverse events | 66.7%
CC(C)C[C@@H](NC(=O)[C@@H](C)NC(=O)[C@@H](CCCCN)NC(=O)[C@H](N)CCCCN)C(=O)N[C@H](C)C(=O)N[C@H](CCCCN)C(=O)N[C@H](C)C(=O)N[C@H](CC(C)C)C(=O)N[C@H](CCCCN)C(=O)N[C@H](Cc1c[nH]cn1)C(=O)N[C@H](Cc1c[nH]c2ccccc12)C(=O)N[C@H](CC(C)C)C(=O)N1CCC[C@@H]1C(=O)N[C@H](C)C(=O)N[C@H](CC(C)C)C(=O)N[C@H](Cc1c[nH]cn1)C(=O)N[C@H](CCCCN)C(=O)N[C@H](CC(C)C)C(=O)N[C@H](C)C(=O)N[C@H](CCCCN)C(=O)N[C@H](C)C(=O)N[C@H](CC(C)C)C(=O)N[C@H](C)C(=O)N[C@H](CCCCN)C(=O)N[C@H](CCCCN)C(N)=O | haemolysis | human erythrocytes | 30 min, pH 7.4, 37 °C |  | HC50 | 8.61 ± 0.35 µM
CC[C@H](C)C(=O)N1CCC(NC(=O)Nc2ccc(OC(F)(F)F)c(F)c2)CC1 |  | human | oral, 8 mg, fed, mean |  | half-life | 59.5 h
CC[C@H](C)[C@@H]1NC(=O)[C@H](C(C)C)NC(=O)[C@H](C(C)C)NC(=O)[C@H](CC(C)C)NC(=O)C[C@@H](C(=O)N[C@@H](Cc2c[nH]c3ccccc23)C(=O)N[C@@H](CC(N)=O)C(=O)N[C@@H](C)C(=O)N2CCC[C@H]2C(=O)NCC(=O)N[C@@H](Cc2ccccc2)C(=O)N[C@@H](Cc2ccccc2)C(=O)O)NC(=O)[C@H](C)NC(=O)[C@H](CCC(N)=O)NC(=O)[C@H](C(C)C)NC1=O | HPLC |  | 3 h, 95 °C |  | thermal stability | stable
CC(C)C[C@H]1NC(=O)[C@H](NC(=O)CN)CSSC[C@H]2NC(=O)[C@H]3CSSC[C@H](C(=O)N[C@H](CC(N)=O)C(=O)N[C@H](Cc4ccccc4)C(=O)N[C@H](CO)C(=O)N[C@H](Cc4ccccc4)C(N)=O)NC(=O)[C@@H](CC(C)C)NC(=O)[C@@H](CCCCN)NC(=O)[C@@H](Cc4ccccc4)NC(=O)[C@@H](CC(C)C)NC(=O)[C@@H](CCCCN)NC(=O)[C@@H](CO)NC(=O)[C@@H](CSSC[C@@H](NC(=O)[C@@H](CCCCN)NC(=O)[C@@H](Cc4c[nH]c5ccccc45)NC(=O)[C@@H](Cc4c[nH]c5ccccc45)NC(=O)[C@@H](Cc4ccccc4)NC(=O)[C@@H](CCC(=O)O)NC1=O)C(=O)N[C@H](CC(N)=O)C(=O)N1CCC[C@@H]1C(=O)N[C@H](CC(N)=O)C(=O)N[C@H](CC(=O)O)C(=O)N[C@H](CC(=O)O)C(=O)N[C@H](CCCCN)C(=O)N3)NC(=O)[C@@H](CCCCN)NC(=O)[C@@H](CC(C)C)NC(=O)[C@@H](CCCCN)NC(=O)[C@H]1CCCN1C(=O)[C@@H](CCCNC(=N)N)NC2=O |  | D2.mdx mice, all tissues | dose not given, one week after dosing stopped |  | concentration decrease | > 50%
COC1CC(OC2CCC3(C)C(CCC45OC46CCC(C(C)=O)C6(C)C(OC(C)=O)C(OC(=O)c4ccccc4)C35)C2)OC(C)C1OC1OC(C)C(O)C(OC)C1O (centres unmarked) |  | Caco-2 | 10 µM |  | Papp B→A | 10.7 ×10⁻⁶ cm/s
CC(=CCC(O)C(C)=Cc1csc(C)n1)CC=CC(C)C(O)C(C)C(=O)C(C)(C)C(O)CC(=O)O (centres unmarked) |  | human, plasma | intravenous infusion, 20.0 mg/m2 KOS-1584, 3 h infusion, cycle 1 |  | half-life | 27 ± 9.93 h
CSCC[C@H](NC(=O)[C@H](CO)NC(=O)[C@H](Cc1ccc(O)cc1)NC(=O)[C@@H](N)CO)C(=O)N[C@@H](CCC(=O)O)C(=O)N[C@@H](Cc1c[nH]cn1)C(=O)N[C@@H](Cc1ccccc1)C(=O)N[C@@H](CCCNC(=N)N)C(=O)N[C@@H](Cc1c[nH]c2ccccc12)C(=O)NCC(=O)N[C@@H](CCCCN)C(=O)N1CCC[C@H]1C(=O)N[C@H](C(=O)NCC(=O)N[C@@H](CCCCN)C(=O)N[C@@H](CCCCN)C(=O)N[C@@H](CCCNC(=N)N)C(=O)N[C@@H](CCCNC(=N)N)C(=O)N1CCC[C@H]1C(=O)N[C@H](C(=O)N[C@@H](CCCCN)C(=O)N[C@H](C(=O)N[C@@H](Cc1ccc(O)cc1)C(=O)N1CCC[C@H]1C(=O)N[C@@H](CC(=O)O)C(=O)NCC(=O)N[C@@H](C)C(=O)N[C@@H](CCC(=O)O)C(=O)N[C@@H](CC(=O)O)C(=O)N[C@@H](CCC(=O)O)C(=O)N[C@@H](CC(C)C)C(=O)N[C@@H](C)C(=O)N[C@@H](CCC(=O)O)C(=O)N[C@@H](C)C(=O)N[C@@H](Cc1ccccc1)C(=O)N1CCC[C@H]1C(=O)N[C@@H](CC(C)C)C(=O)N[C@@H](CCC(=O)O)C(=O)N[C@@H](Cc1ccccc1)C(=O)O)C(C)C)C(C)C)C(C)C |  | healthy human subjects, plasma | subcutaneous, 80 IU twice weekly, day 1, repository corticotropin injection |  | AUC(0-last) | 0.000664 µg·h/mL
CN(C)C(CNC(=O)Nc1cc(C(F)(F)F)ccc1N1CCOCC1)c1ccncc1 (centres unmarked) |  | mouse, serum | intraperitoneal, 360 mg/kg single dose |  | serum GGT | 7 U/L
CCCCCc1cc(O)c2c(c1)OC(C)(C)C1CCC(C(=O)OC3OC(C(=O)O)C(O)C(O)C3O)=CC21 (centres unmarked) | tube adsorption method | HEK293 microsome incubation | 50 µM, 30 min |  | unbound fraction | 0.45 ± 0.061
CC[C@H](C)[C@H](NC(=O)[C@H](CCCCN)NC(=O)[C@H](CCCCN)NC(=O)[C@H](Cc1ccccc1)NC(=O)[C@H](CC(C)C)NC(=O)[C@@H](CCCCN)NC(=O)[C@H](Cc1c[nH]c2ccccc12)NC(=O)[C@H](CCCCN)NC(C)=O)C(=O)NCC(=O)N[C@@H](C)C(=O)N[C@H](C(=O)N[C@@H](CC(C)C)C(=O)N[C@@H](CCCCN)C(=O)N[C@H](CCCCN)C(=O)N[C@@H](CC(C)C)C(N)=O)C(C)C | circular dichroism | PE:PG:CL liposomes | 60 µM, lipid to peptide ratio 1 | baseline: reference peptide | helical content | ~69%
CC(=O)N[C@H](CCCNC(=N)N)C(=O)N[C@H](CCCCN)C(=O)N[C@H](Cc1ccc(O)cc1)C(=O)N[C@H](CS)C(N)=O |  | rat liver mitochondria | 500 nM, 5 min, pH 7.4, 37 °C | baseline: MitoQ | mitochondrial uptake | ~80%
COc1ccc(C)cc1NC(=O)OC1CC2CCCC(C1)N2Cc1ccc(CC[18F])cc1 (centres unmarked) |  | mouse, bone | 5 min, tumour-bearing |  | tracer uptake | 2.98 %ID/g
COc1cc(-c2cncc(-c3ccc(N4CCNCC4)cc3)c2C)cc(O[11CH3])c1F | dynamic PET | Sprague-Dawley rats male, whole brain | intravenous |  | time to peak brain SUV | ≤ 1 min
CC(CCC(=O)NCC(=O)O)C1CCC2C3C(O)CC4CC(OC5OC(C(=O)O)C(O)C(O)C5O)CCC4(C)C3CCC12C (centres unmarked) |  | human, C/C genotype, plasma | dose not given, geometric mean, sex-adjusted |  | glucuronide to parent ratio | 0.42
CSCC[C@H](NC(=O)CNC(=O)[C@H](CC(=O)O)NC(=O)[C@@H](NC(=O)[C@@H](NC(=O)[C@@H](NC(=O)CNC(=O)[C@H](CCC(N)=O)NC(=O)[C@H](CCSC)NC(=O)[C@H](CC(=O)O)NC(=O)[C@H](C)NC(=O)[C@H](C)NC(=O)[C@@H](NC(=O)[C@H](CO)NC(=O)[C@@H](N)CC(C)C)[C@@H](C)O)C(C)C)C(C)C)[C@@H](C)O)C(=O)N[C@@H](C)C(=O)N[C@@H](CO)C(=O)NCC(=O)N[C@@H](CC(C)C)C(=O)N[C@@H](CC(=O)O)C(=O)N[C@@H](CCCCN)C(=O)N[C@@H](CC(=O)O)C(=O)N[C@@H](Cc1ccc(O)cc1)C(=O)N[C@@H](CC(C)C)C(=O)N[C@@H](CCCCN)C(=O)N1CCC[C@H]1C(=O)N[C@@H](CC(=O)O)C(=O)N[C@@H](CC(=O)O)C(=O)O |  | human patients, serum | intravenous infusion, 5 mg/kg |  | distribution half-life | 36 s
Cn1cnc2ccc(Nc3c(F)ccc(NS(=O)(=O)N4CC(F)C4)c3Cl)c(Cl)c2c1=O |  | rat, plasma | STD10, steady state |  | AUC(tau) | 4040 µg·h/mL
